Measured values from different studies.
± gives the spread as reported. ≈ marks a conversion by molar mass, not a printed value.

Substance | organism | assay | system | conditions | scale | quantity | result
CC[C@H]1OC(=O)[C@H](C)[C@@H](O[C@H]2C[C@@](C)(OC)[C@@H](O)[C@H](C)O2)[C@H](C)[C@@H](O[C@@H]2O[C@H](C)C[C@H](N(C)C)[C@H]2O)[C@](C)(O)C[C@@H](C)CN(C)[C@H](C)[C@@H](O)[C@]1(C)O | all pathogens |  | community-acquired pneumonia patients | Fine score below 70 |  | sensitive strains | 73.6%
CN[C@H](CC(C)C)C(=O)N[C@H]1C(=O)N[C@@H](CC(N)=O)C(=O)N[C@H]2C(=O)N[C@H]3C(=O)N[C@H](C(=O)N[C@H](C(=O)O)c4cc(O)cc(O)c4-c4cc3ccc4O)[C@H](O)c3ccc(c(Cl)c3)Oc3cc2cc(c3O[C@@H]2O[C@H](CO)[C@@H](O)[C@H](O)[C@H]2O[C@H]2C[C@](C)(N)[C@H](O)[C@H](C)O2)Oc2ccc(cc2Cl)[C@H]1O | Staphylococcus aureus CVCC546 | ELISA, item: IL-1β | CD-1 mouse endometritis | 10 µg/mL, 24 h |  | serum cytokine level | 199 pg/mL
COc1ccc(NC(=O)Nc2nnc(SCC(O)(Cn3cncn3)c3ccc(F)cc3F)s2)cc1 (stereo not shown) | Nannizzia gypsea | broth microdilution | PTCC 5070 | 48 h, 37 °C |  | MIC90 | 2 to 4 µg/mL (≈ 3.85 to 7.7 µM)
CN(C(=O)c1ccn2ncc(-c3ccc(C(N)=O)cc3)c2c1)c1ccc(C#N)cn1 | Cryptosporidium hominis | cytopathic effect | HCT-8 | 48 h |  | EC50 | 207 ± 2 nM
Cc1occc(=O)c1O | Phyllosticta citricarpa |  | Citrus sinensis leaf discs | 10000 µg/mL, 504 h, methanol solution |  | pycnidia count | 176 ± 9
C[C@H](CCC(=O)O)[C@H]1CC[C@H]2[C@@H]3C[C@H](O)[C@@H]4C[C@H](O)CC[C@]4(C)[C@H]3CC[C@]12C | Clostridioides difficile | spore germination, inhibitor, OD600 | NAP1 | 20 min, together with: 2000 µM taurocholate |  | complete inhibition concentration | 500 µM
O=C(Nc1cccc(F)c1)Nc1nnc(SCC(O)(Cn2cncn2)c2ccc(F)cc2F)s1 (stereo not shown) | Nannizzia gypsea | broth microdilution | PTCC 5070 | 48 h, 37 °C |  | MIC90 | 2 to 4 µg/mL (≈ 3.94 to 7.88 µM)
LSTFFRLFN | Streptococcus sanguis | OD600 | peptide, ATCC 49295, 4 h single-species biofilm | 128 µg/ml, 5 min exposure, OD600 read over 5 h |  | biofilm growth | no effect
Cc1ccc(S(=O)(=O)N2C(=O)CSC2c2cccc(F)c2)cc1 (stereo not shown) | Lacticaseibacillus casei | broth microdilution | NCIM 2651 |  |  | MIC | 8 µg/mL (≈ 22.8 µM)
CC1(C)S[C@@H]2[C@H](NC(=O)[C@H](N)c3ccc(O)cc3)C(=O)N2[C@H]1C(=O)O | all pathogens |  | community-acquired pneumonia patients | Fine score below 70 |  | sensitive strains | 64.8%
NC(=O)c1ncn([C@@H]2O[C@H](CO[P@@](=O)(O)O[P@](=O)(O)OP(=O)(O)O)[C@@H](O)[C@H]2O)n1 | Hepatitis E virus | viral replication, inhibitor, luciferase |  | 48 h, replicon |  | EC50 | 7000 nM
CNCCOC(=O)OCOc1c(-c2ccc(C(F)(F)F)cc2)c(C)nc2cc(OC)c(Cl)cc12 | Plasmodium berghei (GFP) |  | mice | oral, 50 mg/kg once daily, days 3-5, day 6 post-infection |  | parasitaemia suppression | 96 ± 0.3%
O=C(CN1C(=O)Cc2c([nH]c3ccc(Br)cc23)-c2ccc(Cl)cc21)N1CCOCC1 | Leishmania braziliensis | intracellular amastigote infection, DAPI fluorescence microscopy | macrophages | 10 µM, 24 h, 5 µM if macrophages detach | lower = more active | infected macrophages | 15 to 68%
Cc1ccc(C(=O)N(C(=O)c2ccc(C)cc2)C(=S)N2N=C(c3ccc(C)cc3)CC2c2ccc(F)cc2)cc1 (stereo not shown) | Aspergillus fumigatus | microbial growth, disc diffusion |  | 100 µM |  | inhibition zone | 5 mm
CCN(CC)CCNC(=O)CN1C(=O)Cc2c([nH]c3ccc(Br)cc23)-c2ccc(Cl)cc21 | Leishmania braziliensis | parasite growth | J774 | 24 h, intracellular, amastigote |  | EC50 | 3000 nM
C[C@@H]1[C@H](O)[C@@H](C)/C=C/C=C/C=C/C=C/C=C/C=C/C=C/[C@H](O[C@@H]2O[C@H](C)[C@@H](O)[C@H](N)[C@@H]2O)C[C@@H]2O[C@](O)(C[C@@H](O)C[C@@H](O)[C@H](O)CC[C@@H](O)C[C@@H](O)CC(=O)O[C@H]1C)C[C@H](O)[C@H]2C(=O)O | Leishmania donovani | parasite growth | THP-1 | intracellular, amastigote |  | IC90 | 441 nM

Some of these lines once more:
Substance | organism | assay | system | conditions | scale | quantity | result
LSTFFRLFN | Streptococcus sanguis | OD600 | peptide, ATCC 49295, 4 h single-species biofilm | 128 µg/ml, 5 min exposure, OD600 read over 5 h |  | biofilm growth | no effect
Cc1ccc(S(=O)(=O)N2C(=O)CSC2c2cccc(F)c2)cc1 (stereo not shown) | Lacticaseibacillus casei | broth microdilution | NCIM 2651 |  |  | MIC | 8 µg/mL (≈ 22.8 µM)
CC1(C)S[C@@H]2[C@H](NC(=O)[C@H](N)c3ccc(O)cc3)C(=O)N2[C@H]1C(=O)O | all pathogens |  | community-acquired pneumonia patients | Fine score below 70 |  | sensitive strains | 64.8%
